Assay results collected from several papers.
Protocols differ between the studies behind these lines. Several values in a cell are separate wells, animals, samples, runs or records. ± marks the error that the study gave.
TMEM97: Sigma intracellular receptor 2 (TMEM97, Homo sapiens, UniProt Q5BJF2)
UniProt Q5BJF2, sequence (whole entry, looked up): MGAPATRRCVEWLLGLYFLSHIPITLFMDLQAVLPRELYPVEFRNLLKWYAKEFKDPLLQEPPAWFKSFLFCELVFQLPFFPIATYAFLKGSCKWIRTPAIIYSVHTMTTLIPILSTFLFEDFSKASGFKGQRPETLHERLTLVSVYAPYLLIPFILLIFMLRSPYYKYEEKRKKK
uncharacterized protein: uncharacterized protein (Bradysia odoriphaga, UniProt A0A2S0X9G4)
MAPT PSP brain aggregates: Microtubule-associated protein tau, PSP brain aggregates (MAPT, Homo sapiens, UniProt P10636)
UniProt P10636, sequence (whole entry, looked up): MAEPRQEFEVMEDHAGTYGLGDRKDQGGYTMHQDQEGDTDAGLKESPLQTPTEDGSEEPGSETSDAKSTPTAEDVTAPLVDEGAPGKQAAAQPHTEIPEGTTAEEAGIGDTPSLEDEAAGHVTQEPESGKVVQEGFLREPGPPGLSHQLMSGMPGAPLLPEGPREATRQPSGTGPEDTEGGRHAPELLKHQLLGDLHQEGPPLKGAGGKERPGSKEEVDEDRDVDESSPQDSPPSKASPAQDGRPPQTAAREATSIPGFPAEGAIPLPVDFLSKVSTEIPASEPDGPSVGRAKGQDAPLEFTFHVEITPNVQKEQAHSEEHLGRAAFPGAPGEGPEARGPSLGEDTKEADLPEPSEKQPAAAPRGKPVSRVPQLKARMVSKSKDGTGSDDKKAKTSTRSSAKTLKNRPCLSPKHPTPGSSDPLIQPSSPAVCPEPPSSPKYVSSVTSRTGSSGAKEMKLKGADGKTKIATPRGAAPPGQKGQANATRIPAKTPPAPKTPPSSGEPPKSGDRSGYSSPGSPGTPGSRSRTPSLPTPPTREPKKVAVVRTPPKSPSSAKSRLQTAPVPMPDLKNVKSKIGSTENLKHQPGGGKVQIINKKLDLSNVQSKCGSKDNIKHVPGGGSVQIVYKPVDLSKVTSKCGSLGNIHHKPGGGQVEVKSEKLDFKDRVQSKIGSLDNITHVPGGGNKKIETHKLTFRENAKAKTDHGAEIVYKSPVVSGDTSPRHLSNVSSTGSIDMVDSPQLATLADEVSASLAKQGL
SIGMAR1: Sigma non-opioid intracellular receptor 1 (SIGMAR1, Cavia porcellus, UniProt Q60492)
UniProt Q60492, sequence (whole entry, looked up): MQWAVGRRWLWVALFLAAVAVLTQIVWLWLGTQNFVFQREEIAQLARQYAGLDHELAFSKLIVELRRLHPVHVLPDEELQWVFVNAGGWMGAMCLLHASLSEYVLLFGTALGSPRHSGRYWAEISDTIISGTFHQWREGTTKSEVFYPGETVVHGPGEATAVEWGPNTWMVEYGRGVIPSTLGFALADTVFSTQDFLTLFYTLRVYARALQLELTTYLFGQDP
Alpha-1-acid glycoprotein 2: Alpha-1-acid glycoprotein 2 (Homo sapiens, UniProt P19652)
UniProt P19652, sequence (whole entry, looked up): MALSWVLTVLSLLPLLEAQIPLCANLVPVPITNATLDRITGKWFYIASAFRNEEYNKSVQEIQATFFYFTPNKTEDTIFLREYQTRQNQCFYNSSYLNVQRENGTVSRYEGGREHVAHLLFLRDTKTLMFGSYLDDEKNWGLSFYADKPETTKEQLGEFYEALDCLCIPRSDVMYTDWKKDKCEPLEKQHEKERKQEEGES
UniProt O76083, sequence (whole entry, looked up): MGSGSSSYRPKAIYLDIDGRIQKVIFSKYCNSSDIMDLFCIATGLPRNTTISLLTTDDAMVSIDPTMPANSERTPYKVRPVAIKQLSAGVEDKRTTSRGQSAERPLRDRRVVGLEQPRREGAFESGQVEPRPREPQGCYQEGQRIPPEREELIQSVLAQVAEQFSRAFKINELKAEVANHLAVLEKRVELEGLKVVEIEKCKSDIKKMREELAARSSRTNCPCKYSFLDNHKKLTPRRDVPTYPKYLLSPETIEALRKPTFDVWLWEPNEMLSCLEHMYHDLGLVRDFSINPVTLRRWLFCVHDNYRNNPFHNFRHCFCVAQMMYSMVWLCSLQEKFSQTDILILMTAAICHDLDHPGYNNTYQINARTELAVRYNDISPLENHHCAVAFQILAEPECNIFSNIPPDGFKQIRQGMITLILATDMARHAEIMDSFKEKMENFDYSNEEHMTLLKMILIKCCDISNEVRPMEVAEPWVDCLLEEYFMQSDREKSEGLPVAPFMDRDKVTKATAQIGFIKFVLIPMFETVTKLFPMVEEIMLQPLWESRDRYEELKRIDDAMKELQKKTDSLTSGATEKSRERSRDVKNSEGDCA
UniProt P00388, sequence (whole entry, unmodified, looked up): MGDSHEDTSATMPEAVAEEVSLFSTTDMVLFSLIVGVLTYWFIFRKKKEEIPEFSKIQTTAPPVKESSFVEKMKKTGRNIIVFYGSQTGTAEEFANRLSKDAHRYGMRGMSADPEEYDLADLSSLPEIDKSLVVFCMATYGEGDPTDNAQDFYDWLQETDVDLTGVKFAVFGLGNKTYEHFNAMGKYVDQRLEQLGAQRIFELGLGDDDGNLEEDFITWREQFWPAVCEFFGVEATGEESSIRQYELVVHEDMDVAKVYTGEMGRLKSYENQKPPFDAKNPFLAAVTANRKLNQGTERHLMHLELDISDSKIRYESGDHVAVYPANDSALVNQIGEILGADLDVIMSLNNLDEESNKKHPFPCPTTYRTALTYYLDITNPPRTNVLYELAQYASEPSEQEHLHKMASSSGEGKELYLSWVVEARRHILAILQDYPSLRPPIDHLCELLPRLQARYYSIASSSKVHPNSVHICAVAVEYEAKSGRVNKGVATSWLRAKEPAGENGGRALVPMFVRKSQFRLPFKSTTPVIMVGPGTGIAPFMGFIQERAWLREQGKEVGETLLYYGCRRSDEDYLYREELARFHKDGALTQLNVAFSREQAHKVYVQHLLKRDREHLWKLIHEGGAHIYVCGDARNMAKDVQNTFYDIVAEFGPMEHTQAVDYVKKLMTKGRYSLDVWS
UniProt P52790, sequence (whole entry, looked up): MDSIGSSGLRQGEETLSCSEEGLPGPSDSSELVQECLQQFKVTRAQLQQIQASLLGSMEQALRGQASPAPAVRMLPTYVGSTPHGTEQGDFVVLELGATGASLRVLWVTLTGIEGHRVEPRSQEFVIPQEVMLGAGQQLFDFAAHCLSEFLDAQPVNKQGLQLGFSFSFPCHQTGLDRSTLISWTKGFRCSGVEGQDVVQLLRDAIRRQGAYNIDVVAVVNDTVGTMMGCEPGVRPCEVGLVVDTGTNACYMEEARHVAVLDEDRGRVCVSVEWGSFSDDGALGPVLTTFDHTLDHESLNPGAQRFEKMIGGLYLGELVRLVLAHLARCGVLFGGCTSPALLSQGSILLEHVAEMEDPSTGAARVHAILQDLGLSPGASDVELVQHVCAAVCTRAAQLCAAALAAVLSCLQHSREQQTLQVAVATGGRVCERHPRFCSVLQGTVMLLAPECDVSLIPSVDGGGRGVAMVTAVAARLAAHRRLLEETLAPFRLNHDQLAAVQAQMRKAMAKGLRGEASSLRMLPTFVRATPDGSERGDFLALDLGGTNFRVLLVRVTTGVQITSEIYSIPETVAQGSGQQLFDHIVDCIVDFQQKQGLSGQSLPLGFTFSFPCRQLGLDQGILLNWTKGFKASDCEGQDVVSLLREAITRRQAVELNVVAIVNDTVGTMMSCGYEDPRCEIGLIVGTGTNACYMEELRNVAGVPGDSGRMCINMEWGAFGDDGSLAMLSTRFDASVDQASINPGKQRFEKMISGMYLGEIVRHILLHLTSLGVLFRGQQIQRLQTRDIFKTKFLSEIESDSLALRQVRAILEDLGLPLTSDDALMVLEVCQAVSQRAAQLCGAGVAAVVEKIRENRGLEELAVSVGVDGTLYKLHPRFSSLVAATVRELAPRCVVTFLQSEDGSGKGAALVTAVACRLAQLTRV

O=C(c1ccc(CNCCCN2CCN(c3ccc(F)cc3)CC2)cc1)c1ccc([N+](=O)[O-])cc1  Ki (TMEM97; radioligand binding; RT-4 cell membranes; together with: 10 nM [3H]-DTG, 100 nM (+)-pentazocine): 0.034 µM
C=CC(C)(O)CCC=C(C)C (stereo not shown)  Ki (uncharacterized protein; binding, competitive fluorescence displacement): > 50 µM
Fc1ccc(-c2ccc3c(n2)[nH]c2ccncc23)s1  Ki (MAPT PSP brain aggregates; binding; PSP human brain tissue; together with: [3H]PI-2620): < 0.01 µM and 0.0082 µM
OC[C@H]1OC(O)[C@H](O)[C@@H](O)[C@@H]1O (stereo partly shown)  Ki (Hexokinase-3 (HK3, Homo sapiens, UniProt P52790); substrate inhibition; together with: ATP 100 mM, super-saturating): 15000 ± 1000 µM
NC(=O)c1ccc[n+]([C@@H]2O[C@H](COP(=O)(O)OP(=O)(O)OC[C@H]3O[C@@H](n4cnc5c(N)ncnc54)[C@H](OP(=O)(O)O)[C@@H]3O)[C@@H](O)[C@H]2O)c1  Ki (NADPH--cytochrome P450 reductase (Rattus norvegicus, UniProt P00388, W677G); cytochrome c reduction, inhibitor; together with: NADPH): 3.75 ± 0.37 µM
COc1ccc(CCC(C)N2CCc3cc(OC)c(OC)cc3C2)cc1 (stereo not shown)  Ki (SIGMAR1; binding, [3H](+)-pentazocine displacement; guinea pig brain homogenate): 0.0484 ± 0.0077 µM
COC(=O)C1=C(C)NC(C)=C(C(=O)O[C@H]2CCN(Cc3ccccc3)C2)[C@H]1c1cccc([N+](=O)[O-])c1  Ki (Alpha-1-acid glycoprotein 2; competitive inhibitor, ultrafiltration; 15 min, 37 °C, together with: [3H]S-disopyramide): 12.7 µM
c1ccc2[nH]ccc2c1  Ki (uncharacterized protein; binding, competitive fluorescence displacement): > 50 µM
CC[C@H]1OC(=O)[C@H](C)[C@@H](O[C@H]2C[C@@](C)(OC)[C@@H](O)[C@H](C)O2)[C@H](C)[C@@H](O[C@@H]2O[C@H](C)C[C@H](N(C)C)[C@H]2O)[C@](C)(O)C[C@@H](C)C(=O)[C@H](C)[C@@H](O)[C@]1(C)O  Ki (Alpha-1-acid glycoprotein 2; competitive inhibitor, ultrafiltration; 15 min, 37 °C, together with: [3H]S-disopyramide): 24.5 µM
CCCCCCCCC=O  Ki (uncharacterized protein; binding, competitive fluorescence displacement): > 50 µM
OCCCN1CC[C@@H]2C[C@H]1c1cc(-c3ccc(C(F)(F)F)cc3)ccc12  Ki (benzodiazepine site, rat brain; binding): 6.59 µM
Cc1ccc([C@H]2C[C@@H]2COc2cc(NCc3nnc(C)s3)nc(C)n2)nc1  Ki (High affinity cGMP-specific 3',5'-cyclic phosphodiesterase 9A (PDE9A, Homo sapiens, UniProt O76083); enzyme activity, inhibitor, IMAP fluorescence polarization; together with: cGMP): > 54.6 µM
COc1ccccc1OCCNCC(O)COc1cccc2[nH]c3ccccc3c12 (stereo not shown)  Ki (Alpha-1-acid glycoprotein 2; competitive inhibitor, ultrafiltration; 15 min, 37 °C, together with: [3H]S-disopyramide): 25 µM
C[C@H]1c2nn(C)cc2[C@H]2C[C@@H]1N(Cc1ccccc1)C[C@]2(C)O  Ki (SIGMAR1): 4.2 µM
CCCCCCCCCCCC  Ki (uncharacterized protein; binding, competitive fluorescence displacement): > 50 µM
COC(=O)C1=C(C)NC(C)=C(C(=O)OCCN(C)Cc2ccccc2)C1c1cccc([N+](=O)[O-])c1 (stereo not shown)  Ki (Alpha-1-acid glycoprotein 2; competitive inhibitor, ultrafiltration; 15 min, 37 °C, together with: [3H]S-disopyramide): 13.9 µM
CCCCCCC=O  Ki (uncharacterized protein; binding, competitive fluorescence displacement): > 50 µM
Fc1cc(-c2cnc3[nH]c4ccncc4c3c2)ccn1  Ki (MAPT PSP brain aggregates; binding; PSP human brain tissue; together with: [3H]PI-2620): < 0.01 µM and 0.0096 µM
CC(=O)c1ccccc1  Ki (uncharacterized protein; binding, competitive fluorescence displacement): > 50 µM
CNc1ccc(/C=C/C=C/c2nc3ccc(OCC(O)CF)cc3s2)cn1 (stereo not shown)  Ki (Microtubule-associated protein tau, AD brain aggregates (MAPT, Homo sapiens, UniProt P10636); Alzheimer's disease brain homogenate; together with: [3H]asyn-44): > 10 µM
CCCCCCCCCC=O  Ki (uncharacterized protein; binding, competitive fluorescence displacement): > 50 µM
O=C(CN(CCCCI)CCCN1CCN(C2CCCCC2)CC1)Nc1ccc(C(=O)c2ccccc2)cc1  Ki (TMEM97; radioligand binding; RT-4 cell membranes; together with: 10 nM [3H]-DTG, 100 nM (+)-pentazocine): 0.0447 µM
